Experimental data gathered from unrelated publications.
A part holds a random share of what one study measured.

Sample 1 — method: DNA-protein interaction ELISA; molecule type: double-stranded DNA, one strand shown; matrix: in vitro, bacterial lysate; tested at: not given; notes: whole dsDNA probe, crude lysate protein; reference: highest signal in screen; direction: higher = stronger binding
Target: Probable WRKY transcription factor 33, N-terminal DNA-binding domain (WRKY33, Arabidopsis thaliana, UniProt Q8S8P5, residues 169-264)
Sequence of UniProt Q8S8P5 (169-264, looked up): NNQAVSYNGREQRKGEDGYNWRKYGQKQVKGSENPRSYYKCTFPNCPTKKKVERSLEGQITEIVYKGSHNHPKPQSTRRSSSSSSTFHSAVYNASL
Sequence	relative absorbance
AAAAAACACTGCACTATTGGGAGTTCAAAA	20.1 % of maximum
AAAAAACAACTTGGAGGATTTACAGCAAAA	23.6 % of maximum
AAAAAATCGCGAACGTACGTCCGCGGAAAA	21.2 % of maximum
AAAAAACATCGCTGTCGTTGACGTTGAAAA	66.4 % of maximum
AAAAAAGTCCATAAACTAAATTGGATAAAA	23.5 % of maximum
AAAAAAGGCGTCTGACTGTAACTCGTAAAA	22.8 % of maximum
AAAAAAACGCTCAAGTCTATCAGTAGAAAA	21.9 % of maximum
AAAAAACGCCTTATGCCTCCCGCTCGAAAA	32.3 % of maximum

Sample 2 — method: RNA Bind-n-Seq; molecule type: RNA; matrix: in vitro; tested at: 1 µM; notes: whole 134-nt RNA, ends assumed; added: 150 mM KCl; reference: input library; direction: higher = stronger binding
Target: Ras GTPase-activating protein-binding protein 1, RRM domain (G3BP1, Homo sapiens, UniProt Q13283)
Sequence of UniProt Q13283 (whole entry, looked up): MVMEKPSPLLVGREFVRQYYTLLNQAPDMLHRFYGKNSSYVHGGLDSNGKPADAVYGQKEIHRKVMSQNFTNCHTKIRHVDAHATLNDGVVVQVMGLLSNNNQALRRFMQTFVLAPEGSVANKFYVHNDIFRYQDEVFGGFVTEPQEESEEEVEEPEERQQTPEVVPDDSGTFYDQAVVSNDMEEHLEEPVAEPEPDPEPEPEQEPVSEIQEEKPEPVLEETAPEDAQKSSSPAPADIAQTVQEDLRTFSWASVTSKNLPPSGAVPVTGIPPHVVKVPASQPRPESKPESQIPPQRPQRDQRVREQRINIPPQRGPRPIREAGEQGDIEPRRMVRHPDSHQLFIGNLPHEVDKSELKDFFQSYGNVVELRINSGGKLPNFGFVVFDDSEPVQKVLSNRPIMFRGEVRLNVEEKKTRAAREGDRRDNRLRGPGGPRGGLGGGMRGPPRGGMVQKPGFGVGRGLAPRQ
All sequences stand within: GGGAGUUCUACAGUCCGACGAUC … UGGAAUUCUCGGGUGUCAAGG
Sequence	log2 enrichment
UGGACUUGCGGGUUCCCAUCUGGGACCAGGACAUACAGUUUCUCCCAGGAUCACAGAAGCUUGUCACCUGCACAGGGUACCACCAGGUAA	-0.291
CACAGACAACACGCACCCCCACAGACACAGAGGGAAGGGGUUGGGAUGGGGACAGGGUGCACAGCAGGGCGGGGUAGGACCCCAGCCCCU	0.075
ACCAUGCAGGUGGGCAUCUUUGGGAGGUGGGGCAAGGGGGGGAUAGGGAGGGGGGUAACACUUUGGGAACAGGUGGUCCCAGGUCGUUUC	-0.531
CUCAAGUCCUGUGCUACACAUCGUAUGUACCGAAUCGGGGAAGGGAAGGAAGGGAAAGUAUUAUGUUACGCCGUUCGGAUCUGCACUUCC	-0.1
CCUCAAGUCCUGUGCUACACAUCGUAUGUACCGAAUCGGCGGGGCGGGCGGGGAAAGUAUUAUGUUACGCCGUUCGGAUCUGCACUUCCA	0.127
CCUCAAGUCCUGUGCUACACAUCGUAUGUACCGAAUCGGGGCGGGGCGGCGGAAAGUAUUAUGUUACGCCGUUCGGAUCUGCACUUCCAG	-0.342
CCUCAAGUCCUGUGCUACACAUCGUAUGUACCGAAUCGGAAAGGUGGUUUGGAAAGUAUUAUGUUACGCCGUUCGGAUCUGCACUUCCAG	-0.31
AAGUCCUGUGCUACACAUCGUAUGUACCGAAUCGGGUUUUGGUUUUGGGUUUUGGGGAAAGUAUUAUGUUACGCCGUUCGGAUCUGCACU	-0.105

Sample 3 — observed: ligand displacement; tested at: 10 µM
Target: Histamine H1 receptor (HRH1, Homo sapiens, UniProt P35367)
Sequence of UniProt P35367 (whole entry, looked up): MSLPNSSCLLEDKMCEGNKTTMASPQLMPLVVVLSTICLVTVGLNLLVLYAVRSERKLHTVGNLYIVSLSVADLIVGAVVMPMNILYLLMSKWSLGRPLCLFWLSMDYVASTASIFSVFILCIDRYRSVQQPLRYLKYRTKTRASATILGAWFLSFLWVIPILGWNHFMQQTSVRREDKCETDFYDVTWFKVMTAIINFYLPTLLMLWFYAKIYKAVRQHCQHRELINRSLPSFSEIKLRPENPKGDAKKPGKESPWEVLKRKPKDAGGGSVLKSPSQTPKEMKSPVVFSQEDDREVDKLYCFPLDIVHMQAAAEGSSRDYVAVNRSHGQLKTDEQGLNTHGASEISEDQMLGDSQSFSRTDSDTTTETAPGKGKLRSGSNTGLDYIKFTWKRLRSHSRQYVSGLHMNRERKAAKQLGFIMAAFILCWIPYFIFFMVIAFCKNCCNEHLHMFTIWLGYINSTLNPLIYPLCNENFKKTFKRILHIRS
Compound	inhibition [%]
c1ccc(N2CCN(Cc3nc4ccccc4[nH]3)CC2)nc1	83.3
NS(=O)(=O)c1cc(NC(=O)Cc2ccccc2)ccc1Oc1cccc(Cl)c1	15.7
Cc1ncc(-c2cc(Cl)ccc2F)cc1-n1c(=O)n(CC(N)=O)c2ccccc21	-2.43
Nc1nc(NCc2ccccc2)nc(-c2cccc(CO)c2)n1	4.01
CN([C@@H]1CCc2c(CC(=O)O)c3ccccc3n2C1)S(=O)(=O)c1ccc(F)cc1	-19.7
O=C1NC(c2ccccn2)Sc2ccccc21 (stereo not shown)	49.9
Cc1ccccc1Oc1cc(-n2c(=O)cc(C(F)(F)F)[nH]c2=O)c2ccccc2c1Cl	10.3
C[C@H](c1ccnc(Nc2nc3ccc(-c4cc(N(C)C)ncn4)cc3[nH]2)c1)N1CCN(C(=O)CC(F)(F)F)CC1	35
CNC(=N)NCCC[C@H](NC(=O)[C@H](CC(C)C)NC(=O)NNC(=O)[C@H](Cc1ccccc1)NC(=O)[C@H](CO)NC(=O)[C@H](CC(N)=O)NC(=O)[C@@H](Cc1ccncc1)NC(=O)[C@H](N)Cc1ccc(O)cc1)C(=O)N[C@@H](Cc1ccccc1)C(N)=O	19.9
CO[C@H]1CC[C@H](CNc2ccc(S(=O)(=O)NC(=O)c3ccc(N4CCN(CC5=C(c6ccc(Cl)cc6)CC(C)(C)CC5)CC4)cc3Oc3cnc4[nH]ccc4c3)cc2[N+](=O)[O-])CC1	34.2
COCCOc1nc(-c2ccc(Cl)nc2)nc2c1CN(C(=O)c1ncn3ccccc13)CC2	23.9
Cn1cc(Cl)c2c(Oc3c(F)cc(Nc4cc(Cl)nc(N)n4)cc3F)ccnc21	3.19
CN1CCN(C(=O)C(C)(C)c2ccc(C(=O)Nc3cn4cc(-c5cc(C(C)(C)C)cc(C(C)(C)C)c5)ccc4n3)cc2)CC1	83
Cc1ccc(-c2cnc([C@@]3(O)CC[C@H](C(=O)O)C(C)(C)C3)s2)cc1Nc1cccc(C(F)(F)F)n1	9.09
COc1cc(C(=O)O)ncc1C#Cc1ccccc1NS(=O)(=O)c1cccc2c(N(C)C)ccnc12	-1.47

Sample 4 — observed: enzyme activity; mode: inhibitor; tested at: 0.5 µM; reference: control
Target: Homeodomain-interacting protein kinase 2 (HIPK2, Homo sapiens, UniProt Q9H2X6)
Sequence of UniProt Q9H2X6 (whole entry, looked up): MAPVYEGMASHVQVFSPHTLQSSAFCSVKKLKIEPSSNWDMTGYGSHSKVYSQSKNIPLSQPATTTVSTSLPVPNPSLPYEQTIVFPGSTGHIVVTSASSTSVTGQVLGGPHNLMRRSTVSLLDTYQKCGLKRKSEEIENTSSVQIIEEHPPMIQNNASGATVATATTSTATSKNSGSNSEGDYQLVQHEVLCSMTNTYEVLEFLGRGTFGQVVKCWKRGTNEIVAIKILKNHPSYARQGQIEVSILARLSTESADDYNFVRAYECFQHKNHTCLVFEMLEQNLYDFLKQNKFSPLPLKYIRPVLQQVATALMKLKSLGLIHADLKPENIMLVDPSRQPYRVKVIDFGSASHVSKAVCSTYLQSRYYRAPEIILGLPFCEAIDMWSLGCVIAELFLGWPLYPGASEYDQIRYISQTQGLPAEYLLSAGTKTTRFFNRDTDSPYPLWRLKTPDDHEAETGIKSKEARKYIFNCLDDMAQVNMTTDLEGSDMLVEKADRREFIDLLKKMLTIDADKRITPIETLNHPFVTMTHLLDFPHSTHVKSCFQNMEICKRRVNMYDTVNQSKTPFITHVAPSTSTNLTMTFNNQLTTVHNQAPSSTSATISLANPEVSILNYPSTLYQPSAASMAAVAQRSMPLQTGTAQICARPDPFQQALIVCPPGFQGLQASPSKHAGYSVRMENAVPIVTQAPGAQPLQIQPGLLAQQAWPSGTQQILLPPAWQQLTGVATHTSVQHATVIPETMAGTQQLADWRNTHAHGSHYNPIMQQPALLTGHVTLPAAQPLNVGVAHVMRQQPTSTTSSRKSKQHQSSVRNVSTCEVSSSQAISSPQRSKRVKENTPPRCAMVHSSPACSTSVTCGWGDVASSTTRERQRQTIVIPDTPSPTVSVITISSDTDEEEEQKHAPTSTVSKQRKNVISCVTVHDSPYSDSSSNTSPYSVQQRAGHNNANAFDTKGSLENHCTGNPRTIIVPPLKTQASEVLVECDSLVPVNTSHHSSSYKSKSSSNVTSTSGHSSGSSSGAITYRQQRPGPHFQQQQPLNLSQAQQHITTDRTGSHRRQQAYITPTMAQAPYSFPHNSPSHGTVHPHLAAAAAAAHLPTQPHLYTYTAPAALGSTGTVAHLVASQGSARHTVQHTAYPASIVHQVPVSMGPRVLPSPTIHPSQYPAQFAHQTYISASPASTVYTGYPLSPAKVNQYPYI
SMILES	remaining activity
Cc1ccc(Nc2nccc(N(C)c3ccc4c(C)n(C)nc4c3)n2)cc1S(N)(=O)=O	105%
NCCNc1ncc(C(N)=O)c(Nc2cccc(C(F)(F)F)c2)n1	76.4%
O=C(Nc1cccc(Nc2cc(Nc3cccc(C(F)(F)F)c3)ncn2)c1)C1CC1	107%
O=C1NC(=O)C(c2cn(CCCO)c3ncccc23)=C1c1cnccn1	96.6%
Cn1c2ccccc2c2c3c(c4c5ccccc5n(CCC#N)c4c21)CNC3=O	97.8%
CO[C@H]1C[C@@H]2CC[C@@H](C)[C@@](O)(O2)C(=O)C(=O)N2CCCC[C@H]2C(=O)O[C@H]([C@H](C)C[C@@H]2CC[C@@H](O)[C@H](OC)C2)CC(=O)[C@H](C)/C=C(\C)[C@@H](O)[C@@H](OC)C(=O)[C@H](C)C[C@H](C)/C=C/C=C/C=C/1C	88%
CN(C)c1ccc(C=C2C(=O)Nc3ccccc32)cc1	106%
Nc1ncnc2n[nH]c(Nc3ccc(F)cc3)c12	106%
Cn1sc(=O)n(Cc2ccccc2)c1=O	99.6%

A few entries again (sample 4):
SMILES	remaining activity
NCCNc1ncc(C(N)=O)c(Nc2cccc(C(F)(F)F)c2)n1	76.4%
O=C(Nc1cccc(Nc2cc(Nc3cccc(C(F)(F)F)c3)ncn2)c1)C1CC1	107%
O=C1NC(=O)C(c2cn(CCCO)c3ncccc23)=C1c1cnccn1	96.6%
Cn1c2ccccc2c2c3c(c4c5ccccc5n(CCC#N)c4c21)CNC3=O	97.8%
